Published values of several laboratories.
Each line is one published result; not all experiments were run side by side. Numbers after ± are the reported error.

Compound | test | system | conditions | how to read | measurement | result
C[C@@H](Nc1cc(F)cc(F)c1)c1cc(C(=O)N(C)C)cc2c(=O)cc(N3CCOCC3)oc12 | CTCAE v4, item: AST increased | patients with advanced solid tumours | oral, dose not given, phase I dose finding |  | patients discontinuing for AE | 1.6%
CNC(=O)c1ccc(-c2cnc3ncc(Cc4ccc5ncccc5c4)n3n2)cc1F |  | Japanese patients | oral, 400 mg, any grade |  | Urticaria treatment discontinuation | 1%
FC(F)(F)c1ccc(CNc2ccc(Cc3c[nH]c4ncc(Cl)cc34)cn2)cn1 | item: mucosal inflammation | human, advanced solid tumours, non-TGCT cohort | oral, 1000 mg/day, grade 3 or higher |  | treatment-related adverse events | 0%
Cc1noc(C)c1Cn1cc(N2C(=O)CN(Cc3cccc(O)c3)C2=O)cn1 |  | pooled human liver microsomes | 10 µM, 30 min, pH 7.4 |  | remaining parent | 116 % peak area
Cc1cc(-c2nccc3c2ccn3CC(=O)Nc2ccc(-c3cnccn3)cn2)ccn1 |  | human | 15 mg once daily, multiple ascending dose |  | subjects with procedural pain | 11.1%
Cc1cc(C)c(CNC(=O)c2cc(Cl)c3c(c2C)O[C@@](C)([C@H]2CC[C@H](N(C)C)CC2)O3)c(=O)[nH]1 |  | relapsed/refractory NHL patients | oral, 200 mg once daily, onset after cycle 1 day 1 |  | adverse event Dysgeusia | 50%
CN(CCC(=O)O)C(=O)c1ccc2c(c1)CC[C@@H]1[C@@H]2CC[C@]2(C)C(c3cncc(F)c3)=CC[C@@H]12 |  | premenopausal women, endometriosis pain, serum | 60 mg twice daily, visit 5, median | reference: baseline | indirect bilirubin change | 0.29 mg/dL
Cl.[2H]C([2H])([2H])CC(=O)c1cnc(NC(=O)C2CC2)cc1Nc1cccc(-c2ncn(C([2H])([2H])[2H])n2)c1OC |  | human, fed, plasma | oral, 25 mg, single dose, liquid formulation |  | elimination rate constant | 2.44e-05 s⁻¹
CCCCC1=NC2(CCCC2)C(=O)N1Cc1ccc(-c2ccccc2S(=O)(=O)Nc2noc(C)c2C)c(COCC)c1 |  | healthy adult volunteers, plasma | oral, 200 mg, single dose, fed, crushed tablet |  | AUC(0-inf) | 39500 ng·h/mL
CC#CC(=O)N[C@H]1CCCN(c2c(F)cc(C(N)=O)c3[nH]c(C)c(C)c23)C1 |  | healthy volunteers | oral, 1 mg single dose, SAD phase I |  | adverse events | 83.3%
CCN1/C(=C/C(C)=O)Sc2ccc(F)cc21 |  | cynomolgus monkey | oral, 10 mg/kg, 4 h post-dose | reference: pre-dose | PR interval change | 106 ± 6.1%
Cn1cc(Nc2nccc(-c3ccc4c(c3)CN(C3COC3)CC[C@H]4NC(=O)c3cn(C(C)(C)C)nn3)n2)cn1 |  | human, whole blood | 150 mg twice daily, day 14 | reference: pre-dose baseline | non-switched memory B cell change | -20.5%
CC(=O)N(C)[C@H]1CCN(C(=O)c2cnc3c(c2)C[C@](C)(c2ccc(F)cc2)N3)C1 | item: Itching | human | oral, 15 mg once daily |  | adverse event duration | 2 days
CCO[C@H]1CCN(Cc2c(OC)cc(C)c3[nH]ccc23)[C@H](c2ccc(C(=O)O)cc2)C1 |  | human mild hepatic impairment, plasma | oral, 200 mg single dose, median |  | unbound AUCinf | 5790 ng·h/mL
CCN1CCN(Cc2ccc(Nc3ncc(F)c(-c4cc(F)c5nc6n(c5c4)[C@H](C)CCC6)n3)nc2)CC1 |  | human, Phase Ib patients, plasma | 400 mg, multiple doses, mean, added: fulvestrant |  | AUC(0-tau) | 8340 ng·h/mL
C=CC(=O)NC1CCN(c2ncc3ncnc(Nc4ccc(Oc5ccc6c(c5)ncn6C)c(C)c4)c3n2)CC1 |  | healthy male volunteers, plasma | oral solution, 60 mg | reference: compound over total radioactivity | AUC0-24 ratio | 0.781
NC(N)=NCCC[C@@H](N)C(=O)N[C@@H](CCCN=C(N)N)C(=O)N1CCC[C@H]1C(=O)N1C[C@H](O)C[C@H]1C(=O)NCC(=O)N[C@@H](Cc1cccs1)C(=O)N[C@@H](CO)C(=O)N1Cc2ccccc2C[C@@H]1C(=O)N1[C@H](C(=O)N[C@@H](CCCN=C(N)N)C(=O)O)C[C@@H]2CCCC[C@@H]21 | popPK full model bootstrap median | human | subcutaneous, dose not given |  | peripheral volume (Vp/F) | 1.79 L
OC[C@H]1O[C@@H](c2ccc(Cl)c(Cc3ccc(O[C@H]4CCOC4)cc3)c2)[C@H](O)[C@@H](O)[C@@H]1O |  | Japanese type 1 diabetes patients, blood | 25 mg, day 28 | reference: baseline | change in haematocrit | -0.1%
CC(=O)Oc1ccccc1C(=O)O |  | male Hartley guinea pigs, anaesthetized | intravenous, 3 mg/kg group, baseline before infusion |  | heart rate | 227 ± 0.6 beats/min

Compound | test | system | conditions | how to read | measurement | result
CC(=O)N[C@H]1[C@H]([C@H](O)[C@H](O)CO)OC(C(=O)O)=C[C@@H]1N=C(N)N | HPLC | HBSS | 10 µg/mL, time not given, three freeze-thaw cycles |  | recovery | 101%
CNCc1ccc(-c2[nH]c3cc(F)cc4c3c2CCNC4=O)cc1 |  | patients | oral, 240 mg twice daily, all grades |  | abdominal pain incidence | 0%
COc1cc2nccc(Oc3ccc(NC(=O)c4cc5c(n(-c6ccccc6)c4=O)CCCC5=O)nc3)c2cc1OC |  | patients with relapsed/refractory AML | oral, 10 mg once daily |  | TEAEs leading to discontinuation | 14.3%
Cc1cc(OCCOCCC(F)(F)P(=O)(O)O)ccc1CCc1cnc2c(N)nc3cc(CCC(=O)O)ccc3c2c1 |  | human, serum | intratumoral, 400 µg every 2 weeks, cycle 1 day 1 |  | AUC(tau) | 64.5 ng·h/mL
CCO[C@H]1CCN(Cc2c(OC)cc(C)c3[nH]ccc23)[C@H](c2ccc(C(=O)O)cc2)C1 |  | PNH patients, active haemolysis | oral, 100 mg, 8 weeks, treatment |  | incidence of haematuria | 0%
COc1cc(Nc2ncc3c(n2)-c2ccc(Cl)cc2C(c2c(F)cccc2OC)=NC3)ccc1C(=O)O |  | patients | oral, dose not given, grade 4, any attribution, added: pembrolizumab |  | anaemia incidence | 4%
O=C(O)CCC(=O)O.[2H]C([2H])([2H])Oc1cc(C)c2[nH]ccc2c1CN1CC[C@@H](C2CC2)C[C@H]1c1ccc(C(=O)O)cc1 |  | human, plasma | 50 mg twice daily, day 10, multiple ascending dose, geometric mean |  | AUC(0-tau) | 24200 ng·h/mL
O=C(O)[C@H]1O[C@@H](Oc2ccc3c(c2)OC[C@H](c2ccc(O)cc2)C3)[C@H](O)[C@@H](O)[C@@H]1O |  | human CSF | concentration not given, mean |  | CSF concentration | not detected
O=c1c2ccccc2oc2ccccc12 |  | tricaprin-tricaprylin mixture | 30 °C, tricaprin fraction 0.56 |  | solubility | 0.0455 mole fraction
C[C@H]1CNCCCN1S(=O)(=O)c1cccc2cncc(F)c12 | item: Eczema | healthy adult men | topical ocular, 1 drop per eye twice daily, 8 days |  | adverse events | 5.6%
CNCCOC12CC3(C)CC(C)(CC(Cn4ncc(-c5ccc(N6CCc7cccc(C(=O)Nc8nc9ccccc9s8)c7C6)nc5C(=O)O)c4C)(C3)C1)C2 |  | beagle dog, male, anaesthetised | intravenous bolus, 0.03 mg/kg, 105 min | reference: baseline | mean arterial pressure change | -1%
CC(C)(C(=O)N1CCOc2c(C#N)cncc2C1)C(F)F |  | human, both sexes | oral, 40 mg single dose |  | subjects with keratitis TEAE | 0%
CC(C)(C)c1ccc(O)c(CN(Cc2cc(C(C)(C)C)ccc2O)C2CCC(NC(N)=O)CC2)c1 (stereo not drawn) |  | C57BL/6 mice, male, plasma | intraperitoneal, 25 mg/kg, single dose |  | terminal elimination rate constant | 8.06e-05 s⁻¹
COc1cc(C2=CCCc3c2ccc(OC)c3OC(C)c2ccc([N+](=O)[O-])s2)cc(OC)c1OC (stereo not drawn) | non-enzymatic, no POR | phosphate buffer | 24 h, pH 7.4 |  | parent drug release | 0%
O=C(NCc1ccc(CNC2CCCCC2)cc1)c1csc2nc[nH]c(=O)c12 | haemolysis | human red blood cells | 1 h, 37 °C |  | EC50 | > 100 µM
N#Cc1ccc2c(c1)[C@H]1CCCN(C(=O)c3ccc4[nH]cnc4c3)[C@H]1C2 |  | human | 80 mg, day 15 |  | mean ACTH level | 7.8 pmol/L
COc1ccc([C@@H]2CC(=O)c3c(O)cc(O)cc3O2)cc1O |  | human CSF | concentration not given, mean |  | CSF concentration | not detected
CC[C@H](C)[C@H](NC(=O)[C@H](Cc1ccccc1)NC(=O)[C@H](CCC(=O)O)NC(=O)[C@H](CCCCNC(=O)COCCOCCNC(=O)COCCOCCNC(=O)CC[C@H](NC(=O)CCCCCCCCCCCCCCCCC(=O)O)C(=O)O)NC(=O)[C@H](C)NC(=O)[C@H](C)NC(=O)[C@H](CCC(N)=O)NC(=O)CNC(=O)[C@H](CCC(=O)O)NC(=O)[C@H](CC(C)C)NC(=O)[C@H](Cc1ccc(O)cc1)NC(=O)[C@H](CO)NC(=O)[C@H](CO)NC(=O)[C@@H](NC(=O)[C@H](CC(=O)O)NC(=O)[C@H](CO)NC(=O)[C@@H](NC(=O)[C@H](Cc1ccccc1)NC(=O)[C@@H](NC(=O)CNC(=O)[C@H](CCC(=O)O)NC(=O)C(C)(C)NC(=O)[C@@H](N)Cc1cnc[nH]1)[C@@H](C)O)[C@@H](C)O)C(C)C)C(=O)N[C@@H](C)C(=O)N[C@@H](Cc1c[nH]c2ccccc12)C(=O)N[C@@H](CC(C)C)C(=O)N[C@H](C(=O)N[C@@H](CCCNC(=N)N)C(=O)NCC(=O)N[C@@H](CCCNC(=N)N)C(=O)NCC(=O)O)C(C)C | 12-lead Holter ECG | healthy humans | subcutaneous, 1.5 mg once weekly, 30 h, steady state | reference: placebo | QT change from baseline | -15 ms
O=S(=O)(O)Oc1ccc(CCO)cc1O |  | human CSF | concentration not given, mean |  | CSF concentration | not detected

Compound | test | system | conditions | how to read | measurement | result
[18F]c1ccc(-c2ccc3c(c2)[nH]c2ccncc23)cn1 | microPET/CT imaging | APP/PS1 mouse, AD model, brain | intravenous, 15 min |  | SUV | 0.754 ± 0.164
CCOc1c([C@H](C)n2nc(C)c3c(N)ncnc32)cc(Cl)c(F)c1[C@@H]1CNC(=O)C1 | item: QTcF change above 60 ms | previously treated B-cell malignancy | oral, 20 mg once daily, overall population | reference: baseline | ECG observations | 1.2%
CCC(=O)N(CCC(c1ccc2c(c1)OCO2)c1ccccc1OC)Cc1ccccc1 (stereo not drawn) |  | female athymic nude mouse, blood | i.p., 60 mg/kg twice daily, 14 days, group mean |  | NEUT | 25.4%
CO[C@H]1/C=C/O[C@@]2(C)Oc3c(C)c(O)c4c(O)c(c(/C=N/N5CCN(C)CC5)c(O)c4c3C2=O)NC(=O)/C(C)=C\C=C\[C@H](C)[C@H](O)[C@@H](C)[C@@H](O)[C@@H](C)[C@H](OC(C)=O)[C@@H]1C |  | healthy human volunteers | oral, 600 mg, itraconazole cohort, added: gepotidacin 1500 mg |  | incidence of device site dermatitis | 6%
CC(C)NCC(O)c1ccc(NS(C)(=O)=O)cc1 (racemic) |  | male Hartley guinea pigs, anaesthetized | intravenous, 3 mg/kg group, baseline before infusion |  | heart rate | 227 ± 0.8 beats/min
CCn1cc(C(=O)N2CCOCC2)c(=O)c2cc(NC3Cc4ccccc4C3)cnc21 |  | human, fasted | oral suspension, 5 mg single dose, arithmetic mean |  | Cmax | 45 ng/mL
CN(C(=O)n1cnc(-c2cccnc2)c1)C1CCCCC1 |  | Wistar rat, medulla oblongata | oral, 10 mg/kg, 4 h, single dose |  | tissue concentration | 32.7 ± 6.6 ng/g
O=C1c2ccncc2C(=O)c2c1[nH]c1ccccc21 |  | Sprague-Dawley rat, female, lung | intravenous, 1 mg/kg, 24 h |  | tissue concentration | 0.91 ± 1.47 nmol/mg
CC1(C)S[C@@H]2[C@H](NC(=O)[C@H](N)c3ccc(O)cc3)C(=O)N2[C@H]1C(=O)O |  | male Hartley guinea pigs, anaesthetized | intravenous, 20 mg/kg group, baseline before infusion |  | heart rate | 202 ± 0.4 beats/min
CCc1cc(C(=O)NC)c2nccc(N3CCc4c(cc(Cn5ccnc5)cc4-c4cn(C)nc4C(F)(F)F)C3=O)c2c1 |  | Sprague Dawley rat | oral, 50 mg/kg once daily, day 3, 7-day toxicology study |  | body weight | 237 ± 9.4 g
C[C@H](CS)C(=O)N1CCC[C@H]1C(=O)O |  | male Hartley guinea pigs, anaesthetized | intravenous, 3 mg/kg group, baseline before infusion |  | heart rate | 227 ± 0.7 beats/min
CNC(=O)c1ccc(-c2cnc3ncc(Cc4ccc5ncccc5c4)n3n2)cc1F | CTCAE v4.0, any causality | human cancer patients | oral, dose escalation |  | peripheral edema incidence (all grades) | 40%
CNc1ccc(-c2nc3ccc(O)cc3s2)cc1 [carbon-11 labelled] | ex vivo biodistribution | normal B6SJL mice, gut | intravenous, 30 min |  | uptake | 4.99 ± 1.6 SUV
CO[C@@H]1[C@H](OC(=O)N2CC(CCN3CCOCC3)C2)CC[C@]2(CO2)[C@H]1[C@@]1(C)O[C@@H]1CC=C(C)C |  | humans | subcutaneous, 0.2 mg twice weekly for 4 weeks, day 28 | reference: baseline | systolic blood pressure | -4 ± 5.9 mmHg
Cc1ccc(OS(=O)(=O)O)c(O)c1 |  | human CSF | concentration not given, mean |  | CSF concentration | not detected
N#Cc1ccc2c(c1)[C@H]1CCCN(C(=O)c3ccc4[nH]cnc4c3)[C@H]1C2 |  | human, plasma | oral, 240 mg once daily |  | AUC(tau) at steady state | 155 µM·h
O=C(Nc1nc2cccc(-c3ccc(CN4CCS(=O)(=O)CC4)cc3)n2n1)C1CC1 | item: vascular disorders | rheumatoid arthritis patients | oral, 30 mg once daily, 4 weeks, any relatedness |  | treatment-emergent adverse events | 5.9%
COc1ccc(-n2nc(C(N)=O)c3c2C(=O)N(c2ccc(N4CCCCC4=O)cc2)CC3)cc1 |  | human, plasma | oral, Full population PK model |  | ED50 | 27.1 ± 5.53 mg
C[C@@H](O)CCOC(=O)C[C@@H](C)O |  | human | oral drink, dose not given, 120 min post dose, mean |  | systolic blood pressure | 112 mmHg
